Published values from different studies.
Protocols differ between the studies behind these lines. ± marks the error that the study gave.
USP14: Ubiquitin carboxyl-terminal hydrolase 14 (USP14, Homo sapiens, UniProt P54578)
Gria2/Glutamate receptor 3: Gria2/Glutamate receptor 3 (Rattus norvegicus, UniProt P19491+P19492)
SLC6A9: Sodium- and chloride-dependent glycine transporter 1 (SLC6A9, Homo sapiens, UniProt P48067)

SMILES = Cc1cc(=O)oc2nc(S)nc(O)c12; tested on = USP14; test = enzyme activity, inhibitor; conditions = 17 µM; quantity = inhibition; value = 16%
SMILES = COc1cccc(COc2ccc(Nc3ncnc4ccc(-c5ccc(S(=O)(=O)N6CCOCC6)cc5)cc34)cc2Cl)c1; tested on = Leishmania major; test = intracellular amastigote growth, luciferase; test system = RAW264.7 macrophages; quantity = EC50; value = > 15 µM
SMILES = COC(=O)[C@]1(C(C)C)C=C(C(=O)Nc2cccc(C(=O)Nc3ccc(Nc4nccc(-c5cccnc5)n4)c(C)c3)c2)C(=O)CC1; tested on = MAPK8 (Homo sapiens, UniProt P45983, C116S); test = binding, SPR; conditions = 100, 300, 1000 nM, 1:1 binding model; quantity = koff; value = 0.127 s⁻¹
SMILES = CC[C@H](C)[C@H](NC(=O)[C@@H](NC(=O)[C@@H](NC(=O)[C@@H](NC(=O)[C@H](CCCNC(=N)N)NC(=O)[C@H](CCC(=O)O)NC(=O)[C@H](CCC(=O)O)NC(=O)[C@H](C)NC(=O)[C@H](CCC(=O)O)NC(=O)CNC(=O)[C@H](C)NC(=O)CN)C(C)C)C(C)C)C(C)C)C(=O)N[C@@H](CC(=O)O)C(=O)N[C@@H](CC(=O)O)C(=O)N[C@@H](CC(=O)O)C(=O)N[C@@H](CCC(=O)O)C(=O)N[C@@H](CC(=O)O)C(=O)N[C@@H](CC(=O)O)C(=O)N[C@@H](CC(=O)O)C(=O)N[C@@H](C)C(=O)N[C@@H](CCC(=O)O)C(=O)N[C@@H](CC(N)=O)C(=O)N[C@@H](CO)C(=O)N[C@@H](CO)C(=O)N[C@@H](CO)C(=O)N[C@@H](CCCNC(=N)N)C(=O)N[C@@H](Cc1ccc(O)cc1)C(=O)O; tested on = Small ubiquitin-related modifier 1 (Homo sapiens, UniProt P63165, C52A); test = binding, ITC; conditions = pH 7.4, chimera with SUMO2 N-terminus; quantity = -TΔS; value = -14.7 ± 0.9 kcal/mol
SMILES = Cc1ncsc1-c1ccc(CNC(=O)[C@@H]2C[C@@H](O)CN2C(=O)[C@@H](NC(=O)C2(F)CC2)C(C)(C)C)c(OCCC2CN(c3nc(NCC(C)(C)C4(O)CCOC4)nc(N4CCC[C@H]4Cn4ccnn4)n3)C2)c1 (stereo partly shown); tested on = VHL/BRD9, with Elongin B/C (Homo sapiens, UniProt P40337+Q9H8M2); test = native mass spectrometry; conditions = 5 µM, with: BRD9 and VCB at 5 µM; scale = reference: unbound BRD9; quantity = ternary complex formation; value = 0%
SMILES = N#CN1CC[C@H](C(=O)Nc2nc3c(s2)CN(C(=O)CN=[N+]=[N-])CC3)C1; tested on = Ran-specific GTPase-activating protein (Homo sapiens, UniProt P43487); test = click pull-down LC-MS/MS; test system = HEK293T cells; quantity = total spectral count; value = 1
SMILES = COC(=O)[C@@]1(C)C=C(C(=O)Nc2cccc(C(=O)Nc3ccc(Nc4nccc(-c5cccnc5)n4)c(C)c3)c2)C(=O)CC1; tested on = MAPK1 (Homo sapiens, UniProt P28482); test = kinase activity, inhibitor; conditions = 4.938 µM, unit not given; scale = reference: no inhibitor; quantity = remaining activity; value = 0.916
SMILES = CC(C)C[C@@H]1NC(=O)CN(C)C(=O)[C@H](Cc2c[nH]c3ccccc23)NC(=O)[C@H](CCC(=O)O)NC(=O)[C@H](Cc2ccccc2)N(C)C(=O)[C@H](Cc2ccccc2)NC(=O)CSC[C@@H](C(N)=O)NC(=O)[C@H](CCCCN)NC(=O)[C@H](C(C)C)NC(=O)[C@H](Cc2ccc(O)cc2)NC(=O)[C@H](Cc2ccc(O)cc2)NC(=O)[C@H](C(C)C)NC(=O)[C@H](Cc2ccccc2)N(C)C(=O)[C@H](CCCNC(=N)N)NC1=O; tested on = AT-rich interactive domain-containing protein 1B (ARID1B, Homo sapiens, UniProt Q8NFD5, C2157Y); test = differential scanning fluorimetry; conditions = 5 µM, C2074Y mutant; quantity = ΔTm; value = 2 ± 1 °C
SMILES = CCCCCCCO[C@H]1O[C@H](CO)[C@@H](O)[C@H](O)[C@@H]1O; tested on = Type 1 fimbrin D-mannose specific adhesin, lectin domain (fimH, Escherichia coli K-12, UniProt P08191); test = isothermal titration calorimetry; conditions = concentration not given, 25 °C; quantity = enthalpy change (ΔH obs); value = -12 kcal/mol
SMILES = O=c1c(=NNc2nnn[nH]2)c(=O)c2ccccc12; tested on = USP14; test = enzyme activity, inhibitor; conditions = 17 µM; quantity = inhibition; value = 74%
SMILES = O=C(O)Cc1cc2c(cc1C(=O)c1cccc(Br)c1)OCO2; tested on = Gria2/Glutamate receptor 3; test = glutamate-evoked current, whole-cell patch clamp; test system = HEK-293T; conditions = concentration not given; scale = reference: glutamate alone; quantity = current amplitude ratio; value = 5.16 ± 0.3
SMILES = Cc1ccc(C[C@H](NC(=O)CN2CCCc3cc4cc(C(=O)NCCNC(=O)CCCC[C@@H]5SC[C@@H]6NC(=O)N[C@@H]65)c(=O)oc4cc32)C(=O)NC/C=C/S(=O)(=O)c2ccccc2)cc1; tested on = Cathepsin S (CTSS, Homo sapiens, UniProt P25774); test = inhibitor; conditions = with: Z-Phe-Arg-AMC; quantity = kinact/Ki; value = 5020 M⁻¹ s⁻¹
SMILES = C[n+]1ccc(/C=N/NC(=O)c2ccc3ccc4ccc(C(=O)N/N=C/c5cc[n+](C)cc5)nc4c3n2)cc1; tested on = hp2 hairpin duplex DNA; test = FRET melting; conditions = 1 µM, with: ds26 10 µM; quantity = ΔTm; value = 0.2 ± 0.3 °C
SMILES = O=C(NCc1ccccc1)c1cccnc1N1CCCC1; tested on = USP14; test = enzyme activity, inhibitor; conditions = 17 µM; quantity = inhibition; value = 9%
SMILES = COC(=O)Cc1cc2c(cc1C(=O)c1ccccc1)OCO2; tested on = Gria2/Glutamate receptor 3; test = glutamate-evoked current, whole-cell patch clamp; test system = HEK-293T; conditions = concentration not given, weighted tau, 1 ms pulse, with: glutamate; quantity = deactivation time constant; value = 2.4 ± 0.2 ms
SMILES = O=S(=O)(c1cccc(-c2ccc3ncnc(Nc4ccc(OCc5cccc(F)c5)c(Cl)c4)c3c2)c1)N1CCCC1; tested on = Leishmania major; test = intracellular amastigote growth, luciferase; test system = RAW264.7 macrophages; quantity = EC50; value = > 15 µM
SMILES = CCCCCC(O)/C=C/C=O (stereo not shown); tested on = Outer kinetochore KNL1 complex subunit ZWINT (ZWINT, Homo sapiens, UniProt O95229); test = competitive isoTOP-ABPP, refers to: ZWINT cysteine peptide; test system = proteome, soluble, MDA-MB-231; conditions = 100 µM, with: iodoacetamide probe; scale = reference: DMSO over compound-treated, higher = stronger cysteine blockade; quantity = isoTOP-ABPP competition ratio; value = 1.8
SMILES = O=C(N1CCCC1)n1cc(-c2ccc(-c3ccccc3)cc2)nn1; tested on = Abhd6 (Mus musculus, UniProt Q8R2Y0); test = enzyme activity, inhibitor, competitive ABPP-SILAC; test system = mouse T-cells; conditions = concentration not given, 4 h, treated in situ; scale = reference: DMSO; quantity = activity ratio; value = 0.55
SMILES = COc1ccc(C(OCCN2CCCC(C(=O)O)C2)(c2ccc(C=O)cc2)c2ccc(OC)cc2)cc1 (stereo not shown); tested on = SLC6A9; test = cell-free assay; conditions = 1 µM; quantity = remaining signal; value = 73.5%
SMILES = Cc1ccc(C2CCN(C3Cc4ccccc4CC3O)CC2)cc1 (racemic); tested on = SIGMAR1 (Homo sapiens, UniProt Q99720); test system = rat liver (sigma2), human sigma1; scale = reference: Ki sigma2 over Ki sigma1; quantity = selectivity ratio; value = 10.4
SMILES = C#CCOC(=O)[C@]1(C)C=C(C(=O)OC(C)(C)C)C(=O)CC1; tested on = Mitogen-activated protein kinase 8, with MKK7 (MAPK8, Homo sapiens, UniProt P45983); test = protein-protein interaction, NanoBiT, refers to: MKK7-JNK1 binding; test system = HEK293T; conditions = 10 µM; scale = reference: DMSO control; quantity = luminescence relative to control; value = 0.834
SMILES = CC(C)[C@@H]1NC(=O)[C@H](Cc2ccccc2)NC(=O)CSC[C@@H](C(N)=O)NC(=O)[C@H](CCC(=O)O)NC(=O)[C@H](CO)NC(=O)[C@H](Cc2c[nH]c3cccc(Cl)c23)NC(=O)[C@H](C2CCCCC2)NC(=O)[C@H](C(C)C)NC(=O)[C@H](Cc2ccc(O)cc2)NC(=O)[C@H](CC(=O)O)NC(=O)[C@H](Cc2c[nH]c3ccccc23)NC(=O)[C@H](Cc2ccc(N)nc2)NC(=O)[C@H](Cc2c[nH]c3ccc(Cl)cc23)NC(=O)[C@H](CCC(=O)O)NC1=O; tested on = Interleukin-1 receptor-like 2 (IL1RL2, Homo sapiens, UniProt Q9HB29); test = reporter gene (SEAP), inhibitor, HEK-Blue IL-36R reporter; test system = HEK-Blue IL-36R cells; conditions = 33.33 µM, 6 h, with: IL-36β 0.1 ng/mL; quantity = remaining activity; value = 2.7%
SMILES = CCOC(=O)C1(C)C(Br)=C(Cl)C(=O)N1c1ccc(F)cc1 (stereo not shown); tested on = Rac GTPase-activating protein 1 (Homo sapiens, UniProt Q9H0H5); test = enzyme activity, inhibitor, ADP detection; conditions = 20 µM; quantity = inhibition; value = 52.9%
SMILES = O=C(N/N=C/c1cc[n+](CC2CC2)c2ccccc12)N/N=C/c1cc[n+](CC2CC2)c2ccccc12; tested on = MYC parallel G4 DNA; test = FRET melting; conditions = 1 µM, DNA 0.2 µM, with: duplex DNA competitor 10 µM; quantity = ΔTm; value = 3.6 ± 0.2 °C
SMILES = Cc1ncc2[nH]c(=O)n(-c3cnc(Oc4cccc5c4C(C)(C)CO5)c(Cl)c3C)c2n1; tested on = KCNC1 (Homo sapiens, UniProt P48547); test = potassium current, activator, automated patch clamp; test system = HEK293 expressing Kv3.1; conditions = 1.25 µM, test pulse -15 mV; quantity = maximum potentiation; value = 205%
SMILES = C#CCCCCNC(=O)c1ccc(N(C(=O)C=C)c2ccc(Br)cc2)cc1; tested on = 3-ketoacyl-CoA thiolase, mitochondrial (Homo sapiens, UniProt P42765); test = mass spectrometry profiling; test system = Ramos cell lysate; conditions = 100 µM over 10 µM, UniProt P42765; scale = reference: high over low concentration; quantity = reactivity ratio; value = 5.89
SMILES = Cc1cc(C)cc(COc2cc3c(cc2OCc2cc(C)cc(C)c2)C2CC(O)(Cc4cn(CCOCCOCCNC(=O)CCCCC5SCC6NC(=O)NC65)nn4)CC(C)N2CC3)c1 (stereo not shown); tested on = Cytochrome c oxidase subunit 4 isoform 1, mitochondrial (Homo sapiens, UniProt P13073); test = biotinylated probe pull-down, refers to: COX4I1; conditions = 10 µM probe; scale = reference: heavy over light; quantity = SILAC ratio; value = 1.44
SMILES = CCOC(=O)C1CCCN(CCOC(=O)C(c2ccc(OC)cc2)c2ccc(OC)cc2)C1 (stereo not shown); tested on = SLC6A9; test = cell-free assay; conditions = 1 µM; quantity = remaining signal; value = 80.9%

Excerpt of the above:
SMILES = Cc1ccc(C2CCN(C3Cc4ccccc4CC3O)CC2)cc1 (racemic); tested on = SIGMAR1 (Homo sapiens, UniProt Q99720); test system = rat liver (sigma2), human sigma1; scale = reference: Ki sigma2 over Ki sigma1; quantity = selectivity ratio; value = 10.4
SMILES = C#CCCCCNC(=O)c1ccc(N(C(=O)C=C)c2ccc(Br)cc2)cc1; tested on = 3-ketoacyl-CoA thiolase, mitochondrial (Homo sapiens, UniProt P42765); test = mass spectrometry profiling; test system = Ramos cell lysate; conditions = 100 µM over 10 µM, UniProt P42765; scale = reference: high over low concentration; quantity = reactivity ratio; value = 5.89
SMILES = C#CCOC(=O)[C@]1(C)C=C(C(=O)OC(C)(C)C)C(=O)CC1; tested on = Mitogen-activated protein kinase 8, with MKK7 (MAPK8, Homo sapiens, UniProt P45983); test = protein-protein interaction, NanoBiT, refers to: MKK7-JNK1 binding; test system = HEK293T; conditions = 10 µM; scale = reference: DMSO control; quantity = luminescence relative to control; value = 0.834
